Published values pooled from the literature.
A part holds a random share of what one study measured. Substitutions count along the parent as printed.

Sample 1 — target: CCND1, cyclin fold, Cln2 fusion (human); method: yeast growth competition, sequencing; matrix: yeast; notes: weak parent motif; reference: not given; direction: higher = stronger binding
Starting sequence: RB1 docking peptide (human); PKPLKKLRFDIEG; partner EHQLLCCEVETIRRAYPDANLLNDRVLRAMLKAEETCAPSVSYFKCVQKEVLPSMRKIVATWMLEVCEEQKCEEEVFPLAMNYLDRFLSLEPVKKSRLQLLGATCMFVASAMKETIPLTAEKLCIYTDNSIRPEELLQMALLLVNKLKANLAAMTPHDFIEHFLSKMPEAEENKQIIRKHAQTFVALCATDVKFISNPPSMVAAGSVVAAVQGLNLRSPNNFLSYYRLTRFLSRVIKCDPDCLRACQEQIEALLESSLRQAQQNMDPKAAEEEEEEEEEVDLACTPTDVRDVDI
| Variant | normalised enrichment score |
| --- | --- |
| PKPLGKLRFDIEG [K5G] | -0.056 |
| PKPLKKLRHDIEG [F9H] | -0.238 |
| PKNLKKLRFDIEG [P3N] | -0.395 |
| PKPLQKLRFDIEG [K5Q] | 0.165 |
| PKCLKKLRFDIEG [P3C] | 0.935 |
| PKPLKKLRFDMEG [I11M] | -0.457 |
| PKPLKKERFDIEG [L7E] | -0.247 |
| PKPLKKLRFQIEG [D10Q] | -0.2 |
| PKPLKKLVFDIEG [R8V] | 0.454 |
| QKPLKKLRFDIEG [P1Q] | -0.0516 |
| VKPLKKLRFDIEG [P1V] | 0.00565 |
| SKPLKKLRFDIEG [P1S] | -0.454 |
| PKPLKDLRFDIEG [K6D] | 0.767 |
| PKPLKKLRFDIEV [G13V] | -0.0992 |
| PKPLKKLYFDIEG [R8Y] | 0.867 |
| PKPQKKLRFDIEG [L4Q] | -0.445 |
| PKPLKKLRFDIET [G13T] | -0.612 |
| PKPLKKLRFMIEG [D10M] | 0.835 |
| PKPLSKLRFDIEG [K5S] | 0.381 |
| PKPLTKLRFDIEG [K5T] | -0.184 |
| PKPLEKLRFDIEG [K5E] | 0.46 |
| PKPLKSLRFDIEG [K6S] | 0.0155 |
| PKPLKKWRFDIEG [L7W] | 0.408 |
| PKPLKKLRFDPEG [I11P] | -0.433 |
| PKPLKKLRFIIEG [D10I] | -0.374 |

Sample 2 — target: MAFG, bZIP domain (human); method: DHFR protein complementation; matrix: yeast; reference: wild-type JUN-FOS pair; direction: higher = stronger binding
Notes: single substitutions, most at no-binding floor
Starting sequence: JUN, bZIP domain (human); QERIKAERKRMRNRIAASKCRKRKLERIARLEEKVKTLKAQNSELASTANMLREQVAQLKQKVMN; partner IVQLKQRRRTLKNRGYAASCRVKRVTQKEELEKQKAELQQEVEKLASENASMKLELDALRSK
| Variant | binding fitness |
| --- | --- |
| E32R | -1.39 natural log |
| A46H | -1.44 natural log |
| A46S | -1.45 natural log |
| Q41S | -1.5 natural log |
| V35W | -1.43 natural log |
| S47C | -1.3 natural log |
| A57M | -1.5 natural log |
| S43H | -1.34 natural log |
| I28Q | -1.54 natural log |
| L38E | -1.25 natural log |
| A49K | -1.36 natural log |
| N42Y | -1.42 natural log |
| V56S | -1.52 natural log |
| A49N | -1.46 natural log |
| K36A | -1.17 natural log |
| E54I | -1.51 natural log |
| A29V | -1.36 natural log |
| E54V | -1.4 natural log |
| R53D | -1.56 natural log |
| A46R | -1.27 natural log |
| L45Q | -1.22 natural log |
| K39I | -1.47 natural log |
| A57P | -1.5 natural log |
| V35S | -1.53 natural log |
| A57Q | -1.5 natural log |

Sample 3 — method: Sort-seq; item: YFP reporter; matrix: E. coli; notes: PhoQ-PhoP variant library; together with: 10 µM Mg2+; reference: high Mg2+ state; direction: higher = stronger signaling
Substance: PhoQ, residues 284 288 289 292 302 303 SLSLLA
| target | fold induction |
| --- | --- |
| PhoP, residues 12 14 15 18 19 TQALL (Escherichia coli, UniProt P23836) | 1.47 |
| PhoP, residues 12 14 15 18 19 NYFRM (Escherichia coli, UniProt P23836) | 10.6 |
| PhoP, residues 12 14 15 18 19 QYFSL (Escherichia coli, UniProt P23836) | 14.5 |

Sample 4 — method: RNA Bind-n-Seq; form: RNA; matrix: in vitro; tested at: 365 nM; reference: no-protein control; direction: higher = stronger binding
Target: RNA binding protein fox-1 homolog 2, RRM domain, GST-SBP tag (RBFOX2, Homo sapiens, UniProt O43251-10, residues 100-194)
Notes: natural RNA segment, single round, ends assumed
Shared flanks, not repeated: GGGAGUUCUACAGUCCGACGAUC … UGGAAUUCUCGGGUGCCAA
Residues (chain): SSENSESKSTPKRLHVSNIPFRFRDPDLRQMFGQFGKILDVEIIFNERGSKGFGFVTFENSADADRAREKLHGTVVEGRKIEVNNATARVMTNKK
| Oligonucleotide | RBNS enrichment (R) |
| --- | --- |
| AAACCAACACAAGUCCCUGGGGCGGGUGGAGAAGAUGGUGGAGCCCCGUGAGACGGGGCUUCUGUGUGACCCUUACUUCCUCUGCACACUGGGACCCUUGAGCCAAGGGC | 0.631 |
| UAAAGUACACAUGAUGUAUUCAGUGCUGCAAGAGUGUUUGAAAUGAGCACACUGCCUCAUUUUCCUCACCAACAAGACAAAGCCUUUCCAAUGAUUUUUUUUUAAACUUU | 0.529 |
| CUUGUGUAGAUAUUUUUAAGUUCUUUGGCUAAGUCCUCUCCUAACUGCCUGUCCUCUGGUUAGGCCCCUCCCUCUCCACUAGUGGUGAAUGCAUGUGUCUGUCUGAUCAG | 39.9 |
| CCCCGUUGGUGAUGAAAGGCCUGAAUAUCUCCCAUCCCAGCUGGCCCCACCUCAGCCCCAGCCCUCCCACCAUGAAAGUGGAACCUGUGUGGGCUUCCUCUCUGCCCCAG | 0.302 |
| GUCAAGUAGUCCAUCUUAGCCCAGUUUGGGCUGGUUAGAGACUCCACAGCACCCAGGAGUGGCCCUGUCUUGCCACAAAGAGCCCGACCAGCAGGUCCUGCAGCUUACCA | 0.433 |
| GCUCAUGAGGACACACUCUGGAAGUCGAGGGGCUGCCACGUGCAGAGGAAGUUCCCGGCCUGGGGGCUUUAUCCAGGGGUCCCAGUCGAGAGUGGCCCGAGGCCGUCCCU | 0.359 |
| ACAGAGGUUUCUCCUGGUUUUCCUUGUUUCUACCCAGAGAAUUUCCUACUCCCCUUUCCCUCCAAAUGUUAAGGGUUUUCUCCCAGAACAGUAAUGGGGCUAAAGGGGCA | 0.228 |
| CUACUUCCUGUAAACAAGUACAGGAAAAUGAAACUAGACGGGUGGGGGACACUAGAAUGAAAACCAGUGUUAGGGUAAAGACAAAACAGACUAUGUACAUAAUCUGUAUA | 0.807 |

Sample 5 — target: CEP164, C-terminal peptide (human); method: DHFR complementation, deep sequencing; matrix: yeast; reference: wild type; direction: higher = weaker binding
Notes: single substitutions, model-inferred values
Starting sequence: PDZK1, PDZ domain 2 (human); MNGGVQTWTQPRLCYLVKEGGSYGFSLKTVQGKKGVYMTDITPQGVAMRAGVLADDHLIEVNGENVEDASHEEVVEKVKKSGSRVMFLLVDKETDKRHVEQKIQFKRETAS; partner HNRVKVYRF
| Variant | binding free energy change [kcal/mol] |
| --- | --- |
| A50V | 0.326 |
| N2L | -0.0808 |
| R12K | 0.0722 |
| V52H | 1.43 |
| E108C | -0.571 |
| K106V | -0.143 |
| R97S | -0.127 |
| G51L | 1.1 |
| D55G | -0.16 |
| V85M | 1.12 |
| G24H | 0.857 |
| G35K | 0.649 |
| D40R | 1.07 |
| S22H | 0.427 |
| A50I | 0.697 |
| L58K | 0.654 |
| F105V | -0.166 |
| D56P | 0.867 |
| E93D | -0.0399 |
| G24N | 0.723 |
| G21V | 0.0626 |
| V17L | 0.426 |
| Y37C | 0.483 |
| V78D | 1.8 |
| K33W | 0.31 |

A few entries again (sample 5):
| Variant | binding free energy change [kcal/mol] |
| --- | --- |
| D56P | 0.867 |
| S22H | 0.427 |
| F105V | -0.166 |
| R12K | 0.0722 |
| G51L | 1.1 |
| A50I | 0.697 |
| K106V | -0.143 |
| V17L | 0.426 |
| R97S | -0.127 |
| K33W | 0.31 |
